Measured values from different studies.
A part holds a random share of what one study measured.

Block 1
Target: Fragile X messenger ribonucleoprotein 1, C-terminal low-complexity region (Fmr1, Mus musculus, UniProt P35922)
Technique: RNA Bind-n-Seq
Form: RNA
Medium: in vitro
Tested at: 200 nM
Notes: whole 134-nt RNA, ends assumed
Together with: 150 mM LiCl
Baseline: input library
Reading: higher = stronger binding
Endpoint: log2 enrichment
All molecules: 7-deaza-guanosine replaces G
Constant ends, left off below: GGGAGUUCUACAGUCCGACGAUC … UGGAAUUCUCGGGUGUCAAGG
UCAAGUCCUGUGCUACACAUCGUAUGUACCGAAUCGGAAAAAGGAGGAAAAAGGAAAGUAUUAUGUUACGCCGUUCGGAUCUGCACUUCC: -0.314
UCAAGUCCUGUGCUACACAUCGUAUGUACCGAAUCGGGUGGGUUUGGGUUUGGGAAAGUAUUAUGUUACGCCGUUCGGAUCUGCACUUCC: -1.56
UGGCCCUGGUGGCAUGCCGGGAGGAAGAGGUGGCCUCAUGGAUCGUGGUGGUCCCGGUGGAAUGUUCAGAGGUGGCCGUGGUGGAGACAG: -0.286
UCCCAAUGCUCGGAGGAAGCCCAAGGGCAGCCCUCGUGUACCUGAUGCCAAGAAGCCUAAACCCAAGAAAGUAGCUCCCCUGAAAAUCAA: 1.46
CAAGUCCUGUGCUACACAUCGUAUGUACCGAAUCGGCCCGGGGCCCGGGCCCGGGGAAAGUAUUAUGUUACGCCGUUCGGAUCUGCACUU: -2.11
UGGGAGGUGGAUUUUGUUUAUUUUUUUAGCUCAUUUCCAGGGGUGGGAAUUUUUUUUUAAUGUGUGUCAUGAAUAAAGUUGUUUUUGAAA: -0.295
AGUCCUGUGCUACACAUCGUAUGUACCGAAUCGGGGAAAAAAAGGGGAGGGGAGGGGAAAGUAUUAUGUUACGCCGUUCGGAUCUGCACU: 0.0139
ACCAUGCAGGUGGGCAUCUUUGGGAAGUGGGGCAAGGGGGGGAUAGGGAGGGGGGUAACACAUUGGGAACAGGUGGUCCCAGGUCGUUUC: 1.39

Block 2
Target: Sal-like protein 4, full length isoform A (SALL4, Homo sapiens, UniProt Q9UJQ4, residues 1-1053)
Chain of UniProt Q9UJQ4 (whole entry, looked up): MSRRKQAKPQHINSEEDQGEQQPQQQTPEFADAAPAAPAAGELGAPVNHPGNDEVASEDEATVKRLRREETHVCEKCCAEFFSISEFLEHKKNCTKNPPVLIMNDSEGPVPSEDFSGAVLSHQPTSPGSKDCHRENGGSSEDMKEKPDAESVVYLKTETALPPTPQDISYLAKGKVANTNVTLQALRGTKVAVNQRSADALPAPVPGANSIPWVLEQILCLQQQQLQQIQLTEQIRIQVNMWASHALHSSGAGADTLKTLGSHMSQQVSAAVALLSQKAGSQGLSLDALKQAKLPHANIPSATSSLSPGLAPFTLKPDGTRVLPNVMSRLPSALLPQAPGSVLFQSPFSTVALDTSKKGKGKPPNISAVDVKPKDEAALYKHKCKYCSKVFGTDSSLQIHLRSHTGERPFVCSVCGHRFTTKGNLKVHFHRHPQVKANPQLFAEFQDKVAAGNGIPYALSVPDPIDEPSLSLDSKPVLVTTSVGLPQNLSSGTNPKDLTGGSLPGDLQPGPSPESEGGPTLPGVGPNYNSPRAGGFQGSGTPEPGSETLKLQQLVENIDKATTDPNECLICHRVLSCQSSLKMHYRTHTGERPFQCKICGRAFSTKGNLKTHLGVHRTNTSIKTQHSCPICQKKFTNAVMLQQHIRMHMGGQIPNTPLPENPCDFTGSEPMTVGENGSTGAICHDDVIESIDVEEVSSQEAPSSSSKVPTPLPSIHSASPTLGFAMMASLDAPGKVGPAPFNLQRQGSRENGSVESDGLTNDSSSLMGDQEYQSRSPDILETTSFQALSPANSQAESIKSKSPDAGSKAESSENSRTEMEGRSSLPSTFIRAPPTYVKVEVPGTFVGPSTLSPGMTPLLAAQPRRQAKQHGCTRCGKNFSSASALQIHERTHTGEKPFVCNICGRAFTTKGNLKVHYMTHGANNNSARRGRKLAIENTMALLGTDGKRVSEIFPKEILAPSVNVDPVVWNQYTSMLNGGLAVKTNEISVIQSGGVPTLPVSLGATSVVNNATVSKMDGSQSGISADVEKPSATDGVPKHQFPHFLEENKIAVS
Technique: universal PBM
Form: double-stranded DNA, one strand shown
Medium: in vitro
Tested at: 600 nM
Notes: 8-mer, flanks averaged, mean of replicates
Reading: higher = stronger binding
Endpoint: E-score
TATGTCGA: 0.189
GACCCCAA: -0.187
ACTCAGAG: -0.123
ACGTAGCT: -0.00434
CGATGTTC: -0.202
GATCTACA: 0.0769
GGATACTA: 0.016
ACAACTAG: -0.0363
ACCACTGA: -0.0752
TCTGGCCA: -0.0186
CAGAGACA: -0.123
CTGACCCA: -0.16
AGAAATTG: 0.32
CTGTCTAC: 0.0242
CTGATACA: 0.0826
GAAGTTCC: -0.303
CACGCATC: -0.0776
GGTTTGAC: -0.016
AGCGCGAA: -0.123
AATTGCAC: 0.0746
GAACCTTC: -0.0394
AATAAGTG: 0.261
GAGCTTGA: -0.0696
TAGTGATA: 0.176
CCTCTGTC: -0.226

Block 3
Target: Histone acetyltransferase KAT6A, both winged helices, GST fusion (KAT6A, Homo sapiens, UniProt Q92794, residues 1-181)
Technique: protein binding microarray
Form: double-stranded DNA, one strand shown
Medium: in vitro
Tested at: not given
Notes: 8-mer, flanks averaged, mean of 2 arrays, mostly near background
Baseline: not given
Reading: higher = stronger binding
Endpoint: E-score
Residues (chain): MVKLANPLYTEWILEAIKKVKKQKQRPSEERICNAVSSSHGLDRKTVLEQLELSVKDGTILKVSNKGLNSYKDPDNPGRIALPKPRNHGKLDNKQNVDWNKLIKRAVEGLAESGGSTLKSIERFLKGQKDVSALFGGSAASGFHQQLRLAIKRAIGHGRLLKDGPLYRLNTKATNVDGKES
AACCATAT: -0.143
CCGGGACG: 0.246
CGCCCCAA: 0.0964
CCACCAGA: -0.214
CAGCGGGC: 0.179
ATGCATAG: -0.135
GACCTACC: -0.159
CATCCCAC: 0.00331
CGGAAAGA: 0.193
GCCCAACC: -0.0557
CGGTCTGC: 0.224
CATTCAGG: -0.144
CGTCTACC: 0.141
GGTGCGAA: 0.0532
CCCTACTA: -0.0043
ATTCGCCC: 0.0824
ATTGTTGC: -0.0304
CAGCTCAA: -0.207
CAACCCAC: -0.207
CCTTCCCC: -0.198
CTGTGTCA: 0.0339
AGGCGGAA: 0.168
AGGGACCT: -0.0956
CTTTACTC: -0.0662
GCTATGAC: 0.0761

Block 4
Target: RING finger protein unkempt homolog, zinc fingers 1-6, GST-SBP tag (UNK, Homo sapiens, UniProt Q9C0B0, residues 30-357)
Technique: RNA Bind-n-Seq
Form: RNA
Medium: in vitro
Tested at: not given
Notes: RNA with constant flanks, ends assumed
Baseline: input RNA pool
Reading: higher = stronger binding
Endpoint: bound/input enrichment
Constant ends, left off below: GGGAGUUCUACAGUCCGACGAUC … CAACAGAGGAUUGAGCAUCA
Construct (chain): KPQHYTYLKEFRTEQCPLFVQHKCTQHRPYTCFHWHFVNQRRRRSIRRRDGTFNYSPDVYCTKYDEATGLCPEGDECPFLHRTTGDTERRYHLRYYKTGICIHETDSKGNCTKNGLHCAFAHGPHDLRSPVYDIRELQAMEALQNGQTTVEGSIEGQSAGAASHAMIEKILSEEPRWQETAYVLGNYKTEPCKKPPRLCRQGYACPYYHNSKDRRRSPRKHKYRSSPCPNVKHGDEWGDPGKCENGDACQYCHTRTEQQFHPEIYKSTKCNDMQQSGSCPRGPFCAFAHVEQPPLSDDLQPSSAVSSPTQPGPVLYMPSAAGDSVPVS
CUUCUCAGCAUGGGGAAAUAACAGUUCUCAGGGACAGUCUACUCAAAGCUCUGGAUACCGCCGCAAUUACGCUUAUGCACCCAGCUCCUUAGGUGGAGCCAUGAUUGAUGGACAGUCAGC: 0.0919 ratio
UACCUCCAGAAGGCACUACUUCUAUCGUAGGGCGAGUCUAAUUGUUAGACAUUUCUUACUUACCGUGAUUGGAUUCUGCUUUCCUAUGACUUCUGCCUACUGGGUCUUGUUUUGUUCCUU: 0.363 ratio
GCAGCCCUGUCUGUUCGAAAUCUCUCUCCUUAUGUUUCCAACGAACUUUUGGAAGAGGCCUUCCGCCAGUUUGGUCCUAUUGAAAGGGCUGUUGUAAUUGUGGAUGAUCGCGGAAGAUCU: 0.173 ratio
CCUCCAGAAUUUGGGUUUCCUGAGAAGACAACAGUGAAACAGCGUUACCGGCUGCUUGGCAACCGCCUCAACGUGCAUGUGGUAGCAAAACUCCUCACAGUCCUGUGUGAAGGAUUUGGA: 0.264 ratio
CUCUUUUUUUUCCACGGGGCUGUUUUUUUAAUUUGGCUGCAAUUGCAUGAAAUCCCAAUGGUGCCGACCAGUGGCGAUGGAUCUAGGAGUUUACCAACUGAGACAUUUUUCCAUUUCUUU: 0.591 ratio
AGGUCGCGGGCGCCACAGGUGGAAGAAGAAAGGUGCCACUUUGGCAUGAAGAUAGACUCACUCCGACGUCAAUCUUUUAAGCUGAGUGCAUUGUGAUUUCCAAUAAUUGAGGCAGUGGUU: 0.164 ratio
UCUCUGGAAGCUAUGGGCAGAGCUCAGUUCAUAGUUGUUGGGAAAUAAGUGCUUCAUUUUCCGUUGUUCUGAGUUGAUCCGCACCACUGCACCACAACUCAAUAUGAAAAACUAUUUAAC: 0.164 ratio
CCCUGGCUGUCCUGGAACUCUCUCUGUAGACCAGGCUGGCCUCGAACUCAGGGAUCCACCCCGCUCUGUCUCUGAGUGCUGAGACUGAAGGUGUGCGCCGCCACGCCUGGCUUUUUUCCC: 0.134 ratio

A few entries again (block 2):
GAACCTTC: -0.0394
ACCACTGA: -0.0752
CACGCATC: -0.0776
TAGTGATA: 0.176
